Assay results gathered from unrelated publications.
Compare with care: the assays were run in different laboratories. ± gives the spread as reported. ≈ marks a conversion by molar mass, not a printed value.

With `COc1cc(NC(C)=O)c2c(c1O)-c1c(OC)c(OC)cc3c1C(C2)N(C)CC3` (stereo not shown) the remaining compound was 89 ± 1.5% (rat heart homogenate; 5 µg/mL, 4 h, room temperature, short-term storage).
The AUC(0-last)/dose of `CC(C)(O)c1ncc([S@](N)(=O)=NC(=O)Nc2c3c(cc4c2CCC4)CCC3)s1` is reported as 944 ng·h/mL/mg (healthy human, fasted; oral, 10 mg single dose, capsule formulation).
`CC12N3Cc4c(OCCCS(=O)(=O)[O-])ccc(OCCCS(=O)(=O)[O-])c4CN1C(=O)N1CN4C(=O)N5CN6C(=O)N7Cc8c(OCCCS(=O)(=O)[O-])ccc(OCCCS(=O)(=O)[O-])c8CN8C(=O)N(CN9C(=O)N(CN(C3=O)C12C)C4C95)C6(C)C87C.[Na+].[Na+].[Na+].[Na+]` (stereo not shown) — result for “phase solubility slope”: 0.045 ± 0.0051 (pD 7.4, with: camptothecin).
`CC12CC(c3ccc(S(C)(=O)=O)cc3)C3=C4CCC(=O)C=C4CCC3C1CCC2(O)C(F)(F)C(F)(F)F` (stereo not shown) gave an AUC0–24 of 302 ng·h/mL (human, plasma; oral, 4 mg, geometric mean, with: itraconazole 200 mg/day).
For `CC(=O)N[C@H](CC(=O)O)C(=O)N[C@H](Cc1c[nH]c2ccccc12)C(=O)N[C@H](Cc1ccccc1)C(=O)N[C@H](CCCCN)C(=O)N[C@H](C)C(=O)N[C@H](Cc1ccccc1)C(=O)N[C@H](Cc1ccc(O)cc1)C(=O)N[C@H](CC(=O)O)C(=O)N[C@H](CCCCN)C(=O)N[C@@H](C(=O)N[C@H](C)C(=O)N[C@H](CCC(=O)O)C(=O)N[C@H](CCCCN)C(=O)N[C@H](Cc1ccccc1)C(=O)N[C@H](CCCCN)C(=O)N[C@H](CCC(=O)O)C(=O)N[C@H](C)C(=O)N[C@H](Cc1ccccc1)C(N)=O)C(C)C`, the Cmax was 2.27 ng/mL (statin-treated high-risk CHD patients, both sexes, plasma; oral, 100 mg daily, day 13, 0-8 h, mean, undetectable set to 0).
For `[11CH3]c1ccc2nc(C3CCC3)n(-c3ccc4[nH]ncc4c3)c2n1`, “absorbed radiation dose” read 4.1 µSv/MBq (standard human adult, lungs).
The intestine uptake of `CCCC[C@@H]1NC(=O)[C@@H](NC(=O)[C@H](CCC(=O)O)NC(=O)CNC(=O)CN2CCN(CC(=O)O)CCN(CC(=O)O)CCN(CC(=O)O)CC2)CCCCNC(=O)C[C@@H](C(N)=O)NC(=O)[C@H](C(C)C)NC(=O)[C@@H]2CCCN2C(=O)[C@H](CCCNC(=N)N)NC(=O)CNC(=O)[C@H](Cc2c[nH]c3ccccc23)NC(=O)[C@H](CCCNC(=N)N)NC(=O)[C@@H](Cc2ccccc2)NC(=O)[C@H](Cc2c[nH]cn2)NC(=O)[C@H](CCC(=O)O)NC1=O` [gallium-67 labelled] is reported as 0.52 ± 0.18 %ID (C57 mice, B16/F10 lung metastases; intravenous, 0.037 MBq, 2 h).
`C[C@H]1CO[C@@H]2Cn3cc(C(=O)NCc4ccc(F)cc4F)c(=O)c(O[C@@H]4O[C@H](C(=O)O)[C@@H](O)[C@H](O)[C@H]4O)c3C(=O)N12` has a plasma concentration of 22.6 ± 57.4 ng/mL (LC-MS/MS; human, UGT1A1 wild-type, plasma; oral, 30 mg, 1 weeks after last oral dose).
With `CC[N+]1(Cc2ccc3ccc(O)c(C#N)c3n2)CCCC1CNC(=O)c1cc(S(N)(=O)=O)ccc1OC` (stereo not shown) the release yield was 63% (photolysis at 405 nm; KMOPS buffer; pH 7.2).
With `C=CC(=O)Nc1cc(Nc2nccc(-c3cn(C4CC4)c4ccccc34)n2)c(OC)cc1N(C)CCNC` the plasma concentration was 8.88 ng/g (radiolabelled metabolite profiling; human male, plasma; oral, 110 mg, 2 h).
`CN(C)c1ccc2c(-c3cc(C(=O)N4CCN(CCCOc5ccc6nccc(C(=O)NCC(=O)N7CC(F)(F)C[C@H]7C#N)c6c5)CC4)ccc3C(=O)[O-])c3ccc(=[N+](C)C)cc-3oc2c1` — result for “half-life fast phase”: 1.9 min (intravital imaging; mouse, blood; intravenous, 100 µg).
`C[C@H]1C[C@@H](Oc2cccc(F)n2)CCN1Cc1cnc(N[11C](C)=O)s1` gave a fraction unbound of 9.87% (ultrafiltration; rhesus monkey, plasma).
`CCC(CC)[C@H](NC(C)=O)[C@@H]1[C@H](O)[C@@H](C(=O)N[C@H](C(=O)O)[C@@H](C)CC)C[C@H]1NC(=N)N` has a t1/2 of 5.3 ± 0.8 h (rat plasma; 37 °C).
`CC(=O)[CH](C(C)=O)[Pt-2]1([S+](C)C)[O]C(C)=CC(C)=[O+]1` (stereo not shown) has an AUC(0-24 h) of 263000 ng·h/mL (measured: platinum; rat, whole blood; intravenous, dose not given).
`CCCC[C@H](NC(=O)CNC(=O)CNC(=O)CN1CCN(CC(=O)O)CCN(CC(=O)O)CCN(CC(=O)O)CC1)C(=O)N[C@H]1CC(=O)NCCCC[C@@H](C(N)=O)NC(=O)[C@H](Cc2c[nH]c3ccccc23)NC(=O)[C@H](CCCNC(=N)N)NC(=O)[C@@H](Cc2ccccc2)NC(=O)[C@H](Cc2c[nH]cn2)NC1=O` [gallium-67 labelled] — result for “tumour to tissue uptake ratio”: 25.6 (C57 mice, female, B16/F1 melanoma, tumour over blood; intravenous, 0.037 MBq, 24 h).
For `CCCC[C@H](NC(=O)CNC(=O)CNC(=O)CN1CCN(CC(=O)O)CCN(CC(=O)O)CCN(CC(=O)O)CC1)C(=O)N[C@H]1CC(=O)NCCCC[C@@H](C(N)=O)NC(=O)[C@H](Cc2c[nH]c3ccccc23)NC(=O)[C@H](CCCNC(=N)N)NC(=O)[C@@H](Cc2ccccc2)NC(=O)[C@H](Cc2c[nH]cn2)NC1=O` [copper-64 labelled], the uptake ratio was 2.67 (female C57 mouse, B16/F1 melanoma; intravenous, 0.037 MBq, 24 h; relative to: tumour over heart).
With `N=C(N)NCCC[C@@H]1NC(=O)[C@H](Cc2c[nH]c3ccccc23)NC(=O)[C@@H](CC2CCCCC2)NC(=O)[C@@H]2CCCN2C(=O)[C@@H](NC(=O)CCc2ccccc2)CCCNC1=O` the AUC was 785 ng·h/mL (C57BL/6J mouse, plasma; oral, 1 mg/kg, single dose).
`O=c1c2ccccc2[se]n1CCCCCCn1[se]c2ccccc2c1=O` has a solubility of 272 ± 22 µg/mL (≈ 569 µM) (5% Soluplus in water; 24 h, 25 °C, 50 mg/mL).
Under “log molar absorptivity”, `COc1cc(OC)cc(C2=C3C(C)=C(I)C(/C=C/c4cccs4)=[N+]3[B-](F)(F)n3c(/C=C/c4cccs4)c(I)c(C)c32)c1` is recorded as 4.59 M⁻¹ cm⁻¹ (DMSO).
The Tmax of `Cc1ccc(OCC(=O)O)cc1` is reported as 3 h (Sprague-Dawley rat Crl:CD(SD), male, plasma; oral, 100 mg/kg/day of parent drug, day 90, 90-day repeated dosing).
The blood concentration of `Cn1cc2cc1C(=O)NCCCC(=O)Nc1cn(C)c(n1)C(=O)Nc1cn(C)c(n1)C(=O)Nc1cc(n(C)c1)C(=O)Nc1cc(n(C)c1)C(=O)NC[C@H](N)CC(=O)Nc1cc(n(C)c1)C(=O)Nc1cc(n(C)c1)C(=O)Nc1cc(n(C)c1)C(=O)N2` is reported as 4.6 µM (C57BL/6 mice, blood; intraperitoneal, 120 nmol/animal, 1.5 h, corrected for extraction efficiency).
`O=C([O-])CN1CCN(CC(=O)[O-])CCN(CC(=O)NCC2CCC(C(=O)NC(Cc3ccc4ccccc4c3)C(=O)NCCCCC(NC(=O)NC(CCC(=O)O)C(=O)O)C(=O)O)CC2)CCN(CC(=O)[O-])CC1.[44Sc+3]` (stereo not shown) gave an intact complex of 97 ± 1.4% (transmetallation stability; 4 h, 37 °C, with: Ca2+ 10 mM).
Under “total eye irritation score”, `NC[C@@H](C(=O)Nc1ccc(-c2cn[nH]c2)cc1)c1ccccc1` is recorded as 1 (OECD 405 eye irritation; New Zealand White rabbit, eye; topical, 0.1%, 49 h (day 3); direction not given).
`C=C(c1ccc(C(=O)O)c(F)c1)c1cc2c(cc1C)C(C)(C)C=CC2(C)C` gave an HDL level of 99 ± 7 mg/dL (Sprague-Dawley rat, male, plasma; oral, 100 mg/kg, 1 h, sesame oil vehicle).
For `CC(=O)N[C@H](CCNC(=O)c1cc(NC(=O)c2cc(NC(=O)c3cc(NC(=O)c4nccn4C)cn3C)cn2C)cn1C)C(=O)Nc1cn(C)c(C(=O)Nc2cc(C(=O)Nc3cc(C(=O)Nc4cc(C(=O)NCCCN(C)CCCN[14C](=O)c5cccc([14C](=O)O)c5)n(C)c4)n(C)c3)n(C)c2)n1`, the liver concentration was 0.57 mg/kg (BALB/c male mouse; intraperitoneal, 15 nmol per animal, 24 h).
The CLint scaled of `CCC/C(=C\C1=C(F)C(=O)c2ccccc2C1=O)C(=O)N(CC)CC` is reported as 25.9 mL/min/kg (mouse liver S9; 1 µM, pH 7.4, phase I metabolism).
`COc1ccc(NC(=O)[C@H](CCCCN)NC(=O)c2cc(NC(=O)[C@H](CCCCN)NC(=O)c3cc(NC(=O)[C@H](CCCCN)NC(=O)c4cc(NC(=O)[C@@H](N)CCCCN)ccc4OC)ccc3OC)ccc2OC)cc1C(N)=O`: “log association constant” 26.5 (UV-vis λmax shift; Tris 50 mM; pH 7.4, monomer-hexamer global fit, with: NaCl 1.0 M).
`C[C@@H]1Cc2c([nH]c3ccccc23)[C@@H](c2c(F)cc(/C=C/C(=O)O)cc2F)N1C12CC(C1)C2` gave an AUC(0-t) of 8300 ng·h/mL (Balb/c nude mouse, MCF7 xenograft, tumour; oral, 5 mg/kg, steady state).
`C[C@H](CN(C)Cc1ccccc1)NC(=O)c1ccc(-c2noc(C(F)(F)[18F])n2)cc1` has a hippocampus-to-cerebellum ratio of 0.79 ± 0.91 (PET; Sprague-Dawley rat, female, hippocampus and cerebellum; intravenous, 1 min; relative to: hippocampus SUV over cerebellum SUV).
For `CC(=O)N1CCC(NC(=O)Nc2ccc(OC(F)(F)F)cc2)CC1`, “time to full blood elimination” read at most 144 h (male C57BL/6J sEH knockout mice, whole blood; subcutaneous, 1 mg/kg, with: TPPU 0.3 mg/kg).
The blood cholesterol of `Cc1cc2c(cc1C1(c3ncc(C(=O)O)cn3)CC1)C(C)(C)CCC2(C)C` is reported as 49 ± 5.7 mg/dL (Sprague-Dawley rat, male; oral, 100 mg/kg, 24 h, sesame oil vehicle).
With `COc1cc2c(cc1OC)CN(CCCCn1ccc3cc(OCC[18F])ccc31)C2` the tracer uptake was 11.7 %ID/g (male CD-1 mouse, pancreas; intravenous, 280 kBq, 2 min).
`N=C(N)NCCC[C@@H]1NC(=O)[C@H](CCCCNC(=O)CC[C@H](NC(=O)CN2CCN(CC(=O)O)CCN(CC(=O)O)CCN(CC(=O)O)CC2)C(=O)NCCCC[C@@H]2NC(=O)[C@@H](Cc3ccccc3)NC(=O)[C@H](CC(=O)O)NC(=O)CNC(=O)[C@H](CCCNC(=N)N)NC2=O)NC(=O)[C@@H](Cc2ccccc2)NC(=O)[C@H](CC(=O)O)NC(=O)CNC1=O` [gallium-68 labelled]: radioactivity concentration “decreased” (female BALB/c nude mice, SK-RC-52 xenograft, tumour; 0.5 µg, 2 h post injection, with: excess unlabelled DOTA-E-[c(RGDfK)]2 50 µg).
`C#CCOc1ccc(/C=C2\SC(=O)N(CC(=O)NCc3ccccc3)C2=O)cc1` — result for “Kirkwood-Buff integral G2,3”: -257 cm³/mol (inverse Kirkwood-Buff integrals; binary solvent mixture; 298.15 K, mole fraction x1 0.00).

A few entries again:
The CLint scaled of `CCC/C(=C\C1=C(F)C(=O)c2ccccc2C1=O)C(=O)N(CC)CC` is reported as 25.9 mL/min/kg (mouse liver S9; 1 µM, pH 7.4, phase I metabolism).
`C[C@@H]1Cc2c([nH]c3ccccc23)[C@@H](c2c(F)cc(/C=C/C(=O)O)cc2F)N1C12CC(C1)C2` gave an AUC(0-t) of 8300 ng·h/mL (Balb/c nude mouse, MCF7 xenograft, tumour; oral, 5 mg/kg, steady state).
With `CC[N+]1(Cc2ccc3ccc(O)c(C#N)c3n2)CCCC1CNC(=O)c1cc(S(N)(=O)=O)ccc1OC` (stereo not shown) the release yield was 63% (photolysis at 405 nm; KMOPS buffer; pH 7.2).
